Published values gathered from unrelated publications.
Numbered parts are unrelated; each lists some results of a single study. “And” joins repeats or separate records; there may be more than shown.
Chain of UniProt Q8IW41 (whole entry, looked up): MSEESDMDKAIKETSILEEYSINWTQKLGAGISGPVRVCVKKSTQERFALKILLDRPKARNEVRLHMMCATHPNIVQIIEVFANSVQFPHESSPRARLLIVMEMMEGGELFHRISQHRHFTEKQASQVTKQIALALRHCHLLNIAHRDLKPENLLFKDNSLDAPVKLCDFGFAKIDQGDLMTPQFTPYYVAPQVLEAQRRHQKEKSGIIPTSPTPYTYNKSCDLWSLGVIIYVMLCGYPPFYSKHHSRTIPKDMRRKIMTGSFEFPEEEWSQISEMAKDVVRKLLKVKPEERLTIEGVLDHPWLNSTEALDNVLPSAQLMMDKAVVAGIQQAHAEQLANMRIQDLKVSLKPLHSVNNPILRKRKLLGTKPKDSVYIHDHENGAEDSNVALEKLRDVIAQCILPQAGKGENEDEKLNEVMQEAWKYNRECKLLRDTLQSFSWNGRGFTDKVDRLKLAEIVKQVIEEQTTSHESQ
Chain of UniProt P35968 (whole entry, looked up): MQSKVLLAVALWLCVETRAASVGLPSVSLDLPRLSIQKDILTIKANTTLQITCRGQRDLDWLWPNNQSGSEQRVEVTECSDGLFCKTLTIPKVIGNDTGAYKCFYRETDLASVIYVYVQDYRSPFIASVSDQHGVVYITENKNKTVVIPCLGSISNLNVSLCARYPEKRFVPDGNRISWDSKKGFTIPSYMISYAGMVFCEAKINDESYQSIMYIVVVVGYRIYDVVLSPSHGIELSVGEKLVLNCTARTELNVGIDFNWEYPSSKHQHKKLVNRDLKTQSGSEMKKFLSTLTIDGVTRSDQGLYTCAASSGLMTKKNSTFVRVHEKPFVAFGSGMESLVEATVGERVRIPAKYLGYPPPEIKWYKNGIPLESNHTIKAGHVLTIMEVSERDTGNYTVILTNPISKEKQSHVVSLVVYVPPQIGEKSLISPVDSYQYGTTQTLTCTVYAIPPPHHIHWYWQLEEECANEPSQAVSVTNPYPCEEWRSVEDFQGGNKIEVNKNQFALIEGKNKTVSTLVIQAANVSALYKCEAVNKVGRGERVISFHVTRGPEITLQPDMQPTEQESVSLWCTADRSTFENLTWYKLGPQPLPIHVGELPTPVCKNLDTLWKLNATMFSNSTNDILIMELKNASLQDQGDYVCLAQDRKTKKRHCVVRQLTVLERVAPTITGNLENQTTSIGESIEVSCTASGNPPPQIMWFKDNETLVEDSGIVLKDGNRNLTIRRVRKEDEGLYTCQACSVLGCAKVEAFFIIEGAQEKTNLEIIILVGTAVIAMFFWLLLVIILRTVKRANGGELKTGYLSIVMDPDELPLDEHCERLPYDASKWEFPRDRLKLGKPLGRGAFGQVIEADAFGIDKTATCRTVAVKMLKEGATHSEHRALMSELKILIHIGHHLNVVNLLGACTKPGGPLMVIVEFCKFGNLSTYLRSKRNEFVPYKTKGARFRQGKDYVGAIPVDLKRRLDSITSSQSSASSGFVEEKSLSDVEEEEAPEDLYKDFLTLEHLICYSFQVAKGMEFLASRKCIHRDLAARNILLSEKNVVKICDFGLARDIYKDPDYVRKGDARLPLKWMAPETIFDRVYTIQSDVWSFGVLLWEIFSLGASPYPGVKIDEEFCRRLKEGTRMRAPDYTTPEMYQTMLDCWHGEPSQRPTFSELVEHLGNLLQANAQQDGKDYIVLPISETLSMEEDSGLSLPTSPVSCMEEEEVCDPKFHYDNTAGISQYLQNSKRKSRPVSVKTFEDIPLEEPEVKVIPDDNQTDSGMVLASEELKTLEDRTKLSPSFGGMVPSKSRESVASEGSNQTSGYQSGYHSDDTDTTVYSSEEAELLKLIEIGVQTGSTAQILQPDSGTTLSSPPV
Chain of UniProt P52564 (whole entry, looked up): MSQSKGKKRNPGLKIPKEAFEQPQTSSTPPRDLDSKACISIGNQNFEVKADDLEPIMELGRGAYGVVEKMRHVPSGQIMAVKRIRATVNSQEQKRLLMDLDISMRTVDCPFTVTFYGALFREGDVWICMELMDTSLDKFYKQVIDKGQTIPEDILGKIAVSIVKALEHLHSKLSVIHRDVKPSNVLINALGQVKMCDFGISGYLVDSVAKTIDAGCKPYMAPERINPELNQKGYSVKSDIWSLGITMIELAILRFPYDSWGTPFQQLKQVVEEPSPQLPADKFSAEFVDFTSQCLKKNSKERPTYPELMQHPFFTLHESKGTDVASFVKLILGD
Chain of UniProt P29376 (whole entry, looked up): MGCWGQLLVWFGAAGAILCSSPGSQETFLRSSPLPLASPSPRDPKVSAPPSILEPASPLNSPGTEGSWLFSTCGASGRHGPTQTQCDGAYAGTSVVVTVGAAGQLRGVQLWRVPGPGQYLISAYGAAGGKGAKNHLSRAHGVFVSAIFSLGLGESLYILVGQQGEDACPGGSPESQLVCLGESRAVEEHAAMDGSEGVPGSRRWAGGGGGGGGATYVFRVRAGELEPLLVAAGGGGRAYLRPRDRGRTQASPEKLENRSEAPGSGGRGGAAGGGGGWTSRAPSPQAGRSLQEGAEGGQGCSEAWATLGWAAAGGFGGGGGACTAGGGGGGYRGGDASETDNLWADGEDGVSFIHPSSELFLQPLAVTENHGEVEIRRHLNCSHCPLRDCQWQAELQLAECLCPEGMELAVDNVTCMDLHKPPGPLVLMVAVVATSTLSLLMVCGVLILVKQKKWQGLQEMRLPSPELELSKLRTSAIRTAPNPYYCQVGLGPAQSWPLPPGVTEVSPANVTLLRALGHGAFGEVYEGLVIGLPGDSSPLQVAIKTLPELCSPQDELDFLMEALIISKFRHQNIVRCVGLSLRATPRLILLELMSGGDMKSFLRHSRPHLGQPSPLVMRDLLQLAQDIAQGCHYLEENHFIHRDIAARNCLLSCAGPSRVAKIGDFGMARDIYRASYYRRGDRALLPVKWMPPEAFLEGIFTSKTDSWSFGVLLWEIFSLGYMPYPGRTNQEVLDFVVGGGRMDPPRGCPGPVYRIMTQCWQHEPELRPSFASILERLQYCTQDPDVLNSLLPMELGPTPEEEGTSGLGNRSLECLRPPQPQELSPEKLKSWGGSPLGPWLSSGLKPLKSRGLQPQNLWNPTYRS
Chain of UniProt P07333 (whole entry, looked up): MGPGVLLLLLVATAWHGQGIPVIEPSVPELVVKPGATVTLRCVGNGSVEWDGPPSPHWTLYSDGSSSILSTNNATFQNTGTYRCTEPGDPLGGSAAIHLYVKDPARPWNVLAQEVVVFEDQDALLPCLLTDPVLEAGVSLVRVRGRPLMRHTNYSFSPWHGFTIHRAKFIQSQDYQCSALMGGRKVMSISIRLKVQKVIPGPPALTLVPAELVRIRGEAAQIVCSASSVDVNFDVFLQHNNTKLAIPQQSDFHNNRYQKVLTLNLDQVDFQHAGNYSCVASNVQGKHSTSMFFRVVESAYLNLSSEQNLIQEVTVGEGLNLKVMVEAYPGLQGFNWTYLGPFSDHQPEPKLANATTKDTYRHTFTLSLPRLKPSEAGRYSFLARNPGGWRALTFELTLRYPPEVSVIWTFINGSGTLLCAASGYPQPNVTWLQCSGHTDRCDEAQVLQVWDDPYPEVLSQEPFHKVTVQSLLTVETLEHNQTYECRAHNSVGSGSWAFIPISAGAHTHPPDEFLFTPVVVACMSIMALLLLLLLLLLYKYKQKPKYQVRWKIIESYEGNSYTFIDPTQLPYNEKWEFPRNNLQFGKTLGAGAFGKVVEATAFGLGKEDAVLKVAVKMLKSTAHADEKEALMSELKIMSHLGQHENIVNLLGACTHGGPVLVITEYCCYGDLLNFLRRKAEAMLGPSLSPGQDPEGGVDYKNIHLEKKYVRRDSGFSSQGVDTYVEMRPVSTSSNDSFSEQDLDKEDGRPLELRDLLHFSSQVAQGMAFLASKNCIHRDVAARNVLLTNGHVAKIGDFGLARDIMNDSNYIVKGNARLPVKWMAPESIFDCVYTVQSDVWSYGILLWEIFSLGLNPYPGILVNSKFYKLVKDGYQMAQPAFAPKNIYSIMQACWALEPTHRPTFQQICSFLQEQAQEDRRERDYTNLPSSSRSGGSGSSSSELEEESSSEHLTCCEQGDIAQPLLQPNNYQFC

Set 1
Cell line: mouse MPNST tumor cells
Method: high-content immunofluorescence imaging
Measured: nuclear SOX9
Concentration: 10 µM
Time: 12 h
Notes: mean of 2 replicates
Reference: DMSO control
Direction: higher = more nuclear SOX9
SMILES	nuclear SOX9 intensity
CCN(CC)Cc1ccc2cc(COC(=O)Nc3ccc(C(=O)NO)cc3)ccc2c1	207 % of DMSO
NS(=O)(=O)c1cccc2c1c([N+](=O)[O-])cc1nc(O)c(O)nc12	90.2 % of DMSO
CCN(CC)Cc1ccc(C(=O)N(CCc2ccccc2OC)[C@@H]2CCNC2)cc1	142 % of DMSO
O=S(=O)(NCC1CC1)c1ccc(Nc2nccc(N3CCCc4cc(O)ccc43)n2)cc1	306 % of DMSO
Cc1c(F)cc(C(=O)NC2CC2)cc1-c1c(F)cn2c(C(C)(C)C)nnc2c1F	96.5 % of DMSO
CC1(C)CCC(CN2CCN(c3ccc(C(=O)NS(=O)(=O)c4ccc(NCC5CCOCC5)c([N+](=O)[O-])c4)c(Oc4cnc5[nH]ccc5c4)c3)CC2)=C(c2ccc(Cl)cc2)C1	132 % of DMSO
CCOC(=O)C1=C(C)NC(C)=C(C(=O)OC)C1c1cccc([N+](=O)[O-])c1 (stereo not drawn)	118 % of DMSO and 108 % of DMSO
COCCc1ccc(OCC(O)CNC(C)C)cc1 (racemic)	102 % of DMSO
COc1cc(C(=O)NC2CCCNC2)cc(OC)c1OC (stereo not drawn)	94.7 % of DMSO
CCCCC(O)c1ccccc1 (stereo not drawn)	98.5 % of DMSO
COC(=O)C1=C(C)NC(C)=C([N+](=O)[O-])[C@H]1c1ccccc1C(F)(F)F	106 % of DMSO
NS(=O)(=O)c1cc(C2(O)NC(=O)c3ccccc32)ccc1Cl (stereo not drawn)	97.1 % of DMSO
Cc1cc(Cn2c(=O)n(Cc3cnc(C)s3)c(=O)c3cc(S(=O)(=O)NC4(C)CC4)ccc32)n(C)n1	109 % of DMSO

Set 2
Compound: CO[C@H]1CC[C@H](CNc2ccc(S(=O)(=O)NC(=O)c3ccc(N4CCN(CC5=C(c6ccc(Cl)cc6)CC(C)(C)CC5)CC4)cc3Oc3cnc4[nH]ccc4c3)cc2[N+](=O)[O-])CC1
Effect on: cell-free assay
Method: competition with immobilised ligand
Concentration: 1 µM
target	remaining binding [%]
MAP2K6 (Homo sapiens, UniProt P52564)	84
Macrophage colony-stimulating factor 1 receptor, autoinhibited (CSF1R, Homo sapiens, UniProt P07333)	88
RET (Homo sapiens, UniProt P07949, M918T)	85
KDR (Homo sapiens, UniProt P35968)	100
MAPKAPK5 (Homo sapiens, UniProt Q8IW41)	82
LTK (Homo sapiens, UniProt P29376)	100

Set 3
Cell line: HaCaT
Concentration: 100 µM
Time: 18 h
Compound	viability [%]
O=C(CCNNC(=O)c1ccncc1)NCc1ccccc1	137
CN(C)[C@@H]1C(O)=C(C(N)=O)C(=O)[C@@]2(O)C(O)=C3C(=O)c4c(O)cccc4[C@@](C)(O)[C@H]3C[C@@H]12	107
CN1C[C@@H]2C[C@H]1CN2c1cc2c(cc1F)c(=O)c(C(=O)O)cn2C1CC1	95.2
C[C@H](CCC(=O)O)[C@H]1CC[C@H]2[C@@H]3CC[C@@H]4C[C@H](O)CC[C@]4(C)[C@H]3CC[C@]12C	107
Cc1ccc2c(Cl)cc(Cl)c(O)c2n1	77.5
CNS(=O)(=O)Cc1ccc2[nH]cc(CCN(C)C)c2c1	92.8
COc1cc(CCC(=O)O)ccc1O	110
O=C(NCCN1CCOCC1)c1ccc(Cl)cc1	115
O=C1c2cccc3c2[C@H](CCC3)CN1[C@@H]1CN2CCC1CC2	53.9

Set 4
Species: mouse
Matrix: microsomes or S9
Concentration: 2 µM
Time: 0.5 h
SMILES	remaining compound [%]
CCCc1cc(O)nc(N2CCN(c3ccc(Cl)cc3)CC2)n1	6.64
Cc1ccc(-c2nc3[nH]c(CNc4ccc(F)cc4)cc(=O)n3n2)cc1	0.103
c1ccc(COc2ccc(-c3n[nH]cc3CN3CCNCC3)cc2)cc1	49
O=C(O)CCc1nnc2[nH]c3ccccc3n2c1=O	88.3
CCOC(=O)Cc1c(-c2nc3ccccc3c(=O)[nH]2)[nH]c2ccccc12	25.8
Cc1cc2oc(-c3ccsc3)c(CC(=O)O)c2c(=O)[nH]1	> 99.9
COc1ccc2ccccc2c1-c1cc(Cn2c(C)c(C)ncc2=O)on1	0.039
CC1C(S(C)(=O)=O)=NNc2c(-c3ccccc3)cnn21 (stereo not drawn)	26.2
CC(C)C1(C)N=C(c2nn(C)cc2Br)NC1=O (stereo not drawn)	> 99.9
CCC1c2cccn2-c2sc3c(c2CN1C(=O)Nc1ccc(C)cc1C)CCCC3 (stereo not drawn)	1.28
O=C(CCS(=O)(=O)c1ccccc1)N(Cc1cccnc1)c1nc2ccc(Cl)cc2s1	27.6

Some of these lines once more (set 1):
SMILES	nuclear SOX9 intensity
NS(=O)(=O)c1cccc2c1c([N+](=O)[O-])cc1nc(O)c(O)nc12	90.2 % of DMSO
COCCc1ccc(OCC(O)CNC(C)C)cc1 (racemic)	102 % of DMSO
